Measured values collected from several papers.
A part holds a random share of what one study measured.

Series 1
Target: Probable WRKY transcription factor 33, C-terminal DNA-binding domain (WRKY33, Arabidopsis thaliana, UniProt Q8S8P5, residues 346-449)
Method: DNA-protein interaction ELISA
Form: double-stranded DNA, one strand shown
Sample: in vitro, bacterial lysate
Tested at: not given
Setting: whole dsDNA probe, crude lysate protein
Baseline: highest signal in screen
Reading: higher = stronger binding
Residues (chain): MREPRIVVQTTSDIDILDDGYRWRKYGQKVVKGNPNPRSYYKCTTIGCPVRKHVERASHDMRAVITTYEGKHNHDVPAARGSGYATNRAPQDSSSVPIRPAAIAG
Oligonucleotide	relative absorbance
AAAAAAATCCGATCGATGCATATATAAAA	37.8 % of maximum
AAAAAATATGCTACTCCACCTTGATGAAAA	34.1 % of maximum
AAAAAACTACAACCTGCGCGGTGGTCAAAA	37 % of maximum

Series 2
Cell line: HEK-293T
Effect on: pseudovirus infection
Method: FDA-approved drug library screen
Organism: VSV pseudotyped with SARS-CoV-2 spike
Tested at: 10 µM
Time: 16 h
Baseline: vehicle-treated
Compound	GFP-positive cells
CC(C)NCC(O)c1ccc(NS(C)(=O)=O)cc1 (stereo not shown)	103%
CN1CC(=O)N2[C@H](c3ccc4c(c3)OCO4)c3[nH]c4ccccc4c3C[C@@H]2C1=O	111%
CC1(C)S[C@@H]2[C@H](NC(=O)[C@H](C(=O)O)c3ccsc3)C(=O)N2[C@H]1C(=O)O	82.6%

Series 3
Target: Replicase polyprotein 1ab, main protease (rep, Severe acute respiratory syndrome coronavirus 2, UniProt P0DTD1)
Effect on: enzyme activity
Action: inhibitor
Tested at: 20 µM
Setting: hit confirmation, no DTT
SMILES	inhibition [%]
CC1=C(CC(=O)O)c2cc(F)ccc2/C1=C\c1ccc([S+](C)[O-])cc1 (stereo not shown)	57.3
O=C(C=Cc1ccc(O)c2c1C(C(=O)OC(Cc1ccc(O)c(O)c1)C(=O)O)C(c1ccc(O)c(O)c1)O2)OC(Cc1ccc(O)c(O)c1)C(=O)O (stereo not shown)	88
CO/N=C(\C(=O)N[C@@H]1C(=O)N2C(C(=O)O)=C(CSC(=O)c3ccco3)CS[C@H]12)c1csc(N)n1.Cl	73.1

Series 4
Target: RING finger protein unkempt homolog, zinc fingers 1-6, GST-SBP tag (UNK, Homo sapiens, UniProt Q9C0B0, residues 30-357)
Method: RNA Bind-n-Seq
Form: RNA
Sample: in vitro
Tested at: not given
Setting: RNA with constant flanks, ends assumed
Baseline: input RNA pool
Reading: higher = stronger binding
Shared flanks, not repeated: GGGAGUUCUACAGUCCGACGAUC … CAACAGAGGAUUGAGCAUCA
Target sequence (chain): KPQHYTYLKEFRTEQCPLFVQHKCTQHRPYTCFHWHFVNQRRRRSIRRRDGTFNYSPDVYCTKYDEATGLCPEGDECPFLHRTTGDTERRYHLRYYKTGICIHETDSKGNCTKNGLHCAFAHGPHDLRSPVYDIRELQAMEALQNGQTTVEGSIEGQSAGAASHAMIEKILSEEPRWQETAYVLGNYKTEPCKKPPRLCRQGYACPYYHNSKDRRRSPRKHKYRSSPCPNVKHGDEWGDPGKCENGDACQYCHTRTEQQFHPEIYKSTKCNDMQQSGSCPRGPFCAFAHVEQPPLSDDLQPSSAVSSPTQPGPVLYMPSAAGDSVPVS
Oligonucleotide	bound/input enrichment [ratio]
AAAGAAAAAGAUGAAAUGGUAGAACAAGAAUUUAACCGGUUGCUAGAAGCCACUUCUUACCUCCGUCACCAGUUAGACUUCAACGUCCUCAAUAAUAAACCUGUAUCCCUUGGCCAGGCA	0.277
CCCCCUCGGAAGAAAAGGGCACGGGCUGACCCCACUGUGGAGAGCGAGGAGGCAUUCAAGAGCCGGAUGGAGGUGAAGGUGAAGAUCCCUGAAGAAUUAAAACCGUGGCUGGUGGAGGAC	0.518
ACUGGUGUGGUCGUUGUUGGAAUACAGGGAGAGCCUGAGCGUGGACCCCGCUUUCCCAGAACCCGCCGUGAGGCUGUGCUCCGUGAAAAUGCACCACCAGGGACUCCAGUUAUCUCCCCA	0.0878
AUUCCUUUUAUUGAAACAUCAGCAAAGACAAGACAGGGUGUUGAUGAUGCCUUCUAUACAUCCGUUCGAGAAAUUCGAAAACAUAAAGAAAAGAUGAGCAAAGAUGGUAAAAAGAAGAAA	0.181
CCUGCGACAGUUUUUAUGCUUUUUAGUGGUCAAGGAAGUUUGCUCCAACCUUUUAUAUACUACCGAUUUCUUACCCUUCGAUAUUCGUCUCGAAGAAACCCAUAUUGUCGGACCUUAUUU	0.452
GUUCAGAAGAGGUUUGGCUUUCCAGAGGGCAGUGUAGAGCUUUAUGCUGAAAAGGUGGCCACCCGAGGUCUGUGUGCCAUUGCCCAGGCAGAGUCUCUGCGUUACAAACUCCUAGGAGGG	0.185
AUGGCCCAUGUGCUCUGUAACAGAGCCAGACUGGUUUCCUAUCUCCCAGGAUUUUGUUCUUCCGUGAAAAGAGUCAUCAAUCCAAGAGCCUUUUCAACUGCAGGAUCUUCAGGUUCUGAU	0.0589
GCCCCCAGAAGACCCAUAGAAAUGAGAGGCCUGAGGUCUACAAGUCGCUGCUAGAAAUAUUUCCGCCUCUCCAAAGCCCAGAAUGCAGCCCCGACCCAAGUUUGUAAGGGUUCUGGGUGC	0.555

Series 5
Target: Replicase polyprotein 1ab, nsp13 helicase (rep, Severe acute respiratory syndrome coronavirus 2, UniProt P0DTD1)
Action: inhibitor
Tested at: 20 µM
Compound	inhibition
COC(=O)C1=C(C)NC(C)=C(C(=O)O[C@H]2CCN(Cc3ccccc3)C2)[C@H]1c1cccc([N+](=O)[O-])c1	2.99%
O=c1[nH]c(=O)n([C@H]2C[C@H](O)[C@@H](CO)O2)cc1I	3.66%
COc1ccc2nc3c(c(N)c2c1)CCCC3	9.64%
CNc1ncnc2c1ncn2[C@@H]1O[C@H](CO)[C@@H](O)[C@H]1O	4.44%
O=C(NCC1(N2CCN(c3ccccc3)CC2)CCOCC1)c1cccnc1Sc1ccccc1	8.04%
Cc1ccc(-c2ncc[nH]2)cc1NC(=O)c1ccc(OCc2ccccn2)cc1	4.53%
COc1ccc(N(C(=O)Oc2c(C)cccc2C)c2ccnc(Nc3ccc(N4CCN(C)CC4)cc3)n2)c(OC)c1	7.33%
Cn1c(=O)c2c(ncn2CC(O)CO)n(C)c1=O (stereo not shown)	-1.68%
Nc1nc(=S)c2ncn([C@@H]3O[C@H](CO)[C@@H](O)[C@H]3O)c2[nH]1	44.1%
N=C(N)NC(=O)c1cnn(-c2cccc3ncccc23)c1C1CC1	2.53%
COC(=O)[C@H](Cc1ccccc1)NC(=O)[C@@H](N)CC(=O)O	-3.55%
CC(C)(O)CC(=O)NCCn1ccc2ncnc(Nc3ccc(Oc4cccc(C(F)(F)F)c4)c(Cl)c3)c21	2.18%
NCCCC(=O)O	-3.32%
C=C(C)[C@@H]1CC[C@]2(C(=O)O)CC[C@]3(C)[C@H](CC[C@@H]4[C@@]5(C)CC[C@H](O)C(C)(C)[C@@H]5CC[C@]43C)[C@@H]12	3.14%
CN1C(=O)N(c2cc(Cl)cc(Cl)c2)C(=O)[C@]12CN(c1ccc(C(=O)O)cn1)C[C@H]2c1ccc(C#N)cc1	5.93%
COc1cc2c(cc1OC)-c1c/c(=N\c3c(C)cc(C)cc3C)n(C)c(=O)n1CC2	5.01%
COc1ccc(/C=C/C(=O)Nc2ccccc2C(=O)O)cc1OC	0.52%

For quick reference, copied from above (series 4):
Oligonucleotide	bound/input enrichment [ratio]
CCUGCGACAGUUUUUAUGCUUUUUAGUGGUCAAGGAAGUUUGCUCCAACCUUUUAUAUACUACCGAUUUCUUACCCUUCGAUAUUCGUCUCGAAGAAACCCAUAUUGUCGGACCUUAUUU	0.452
ACUGGUGUGGUCGUUGUUGGAAUACAGGGAGAGCCUGAGCGUGGACCCCGCUUUCCCAGAACCCGCCGUGAGGCUGUGCUCCGUGAAAAUGCACCACCAGGGACUCCAGUUAUCUCCCCA	0.0878
